# Experimental data pooled from the literature.
# Numbered parts are unrelated; each lists some results of a single study. Changes are numbered by the printed parent chain.

# Study 1
# Target: ABI1, truncated, D143A, DHFR fusion (Arabidopsis thaliana)
# Method: DHFR PCA, deep sequencing
# Medium: yeast
# Setting: methotrexate growth selection, single substitutions
# With: (+)-ABA 58 µM
# Relative to: wild-type fitted maximum
# Reading: higher = stronger binding
# Starting sequence: PYL1, truncated, DHFR fusion (Arabidopsis thaliana); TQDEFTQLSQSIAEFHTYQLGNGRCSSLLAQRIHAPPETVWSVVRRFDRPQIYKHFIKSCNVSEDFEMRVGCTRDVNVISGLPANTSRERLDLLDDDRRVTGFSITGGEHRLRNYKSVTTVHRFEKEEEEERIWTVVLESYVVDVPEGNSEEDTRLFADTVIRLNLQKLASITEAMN; partner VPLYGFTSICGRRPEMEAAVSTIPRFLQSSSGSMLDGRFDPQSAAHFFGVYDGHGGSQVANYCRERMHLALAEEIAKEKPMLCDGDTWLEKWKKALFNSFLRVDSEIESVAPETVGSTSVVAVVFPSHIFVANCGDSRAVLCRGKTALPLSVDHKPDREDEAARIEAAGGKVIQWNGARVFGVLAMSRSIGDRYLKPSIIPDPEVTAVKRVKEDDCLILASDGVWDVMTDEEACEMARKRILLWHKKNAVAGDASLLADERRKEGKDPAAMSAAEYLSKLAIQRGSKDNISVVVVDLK
Change,relative binding score
P37S,66.4%
N165V,6.08%
D144V,33.1%
F56W,80.8%
V44E,3.48%
S117D,5.74%
P50I,1.78%
Q51C,25.4%
L20H,99.6%
P50Q,6.31%
K58I,33.3%
L138I,66.3%
R74L,1.53%
F124I,93%
E125D,92.3%
E109F,45.6%

# Study 2
# Target: MAFG, bZIP domain (human)
# Method: DHFR protein complementation
# Medium: yeast
# Setting: single substitutions, most at no-binding floor
# Relative to: wild-type JUN-FOS pair
# Reading: higher = stronger binding
# Starting sequence: JUN, bZIP domain (human); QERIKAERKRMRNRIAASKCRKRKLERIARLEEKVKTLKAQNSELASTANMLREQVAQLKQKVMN; partner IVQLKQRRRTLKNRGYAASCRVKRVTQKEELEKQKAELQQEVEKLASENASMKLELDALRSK
Change,binding fitness [natural log]
T37G,-1.5
Q41M,-1.28
M51D,-1.48
T37H,-1.41
T48L,-1.48
S43P,-1.52
E44Q,-1.4
A46Q,-1.5
K39E,-1.44
T48Q,-1.26

# Study 3
# Target: Sal-like protein 4, full length isoform B (SALL4, Homo sapiens, UniProt Q9UJQ4-2, residues 1-616)
# Method: universal PBM
# Molecule type: double-stranded DNA, one strand shown
# Medium: in vitro
# Concentration: not given
# Setting: 8-mer, flanks averaged, mean of replicates
# Reading: higher = stronger binding
Strand,E-score
ATGTTTCG,0.0809
CGTCGTGC,-0.00545
GTGACTAA,0.0754
CGATGAAA,0.22
TACCCGTA,-0.013
AAGGGCAG,-0.217
TAAGGTGA,0.037
GAAGGGAC,-0.135
ACCCCACC,-0.0925
AACTTATA,0.362
CGAATCAG,-0.119
AATATTGG,0.321
CAGCGAAA,-0.0526
CGCGCGGC,-0.323
GGGCGTAA,-0.115
GGGGGGAA,-0.0392
TCATCCCA,-0.00997
AATGGGTG,0.0532
AAAGACAT,0.132
CCTACCCA,-0.0293

# Study 4
# Target: CCNA2, cyclin fold, Cln2 fusion (human)
# Method: yeast growth competition, sequencing
# Medium: yeast
# Setting: weak parent motif
# Relative to: not given
# Reading: higher = stronger binding
# Starting sequence: RP1L1 docking peptide (human); TLGLGPLSFTLED
Change,normalised enrichment score
TLGLGPLSFALED [T10A],-0.358
TLGLGPLAFTLED [S8A],-0.605
TLGLGPLSFTAED [L11A],-0.46
TLALGPLSFTLED [G3A],-0.426
TAGLGPLSFTLED [L2A],-0.43
TLGLGPLSATLED [F9A],-0.555

# Study 5
# Target: Histone acetyltransferase KAT6A, winged helix 1, GST fusion (KAT6A, Homo sapiens, UniProt Q92794, residues 1-85)
# Method: protein binding microarray
# Molecule type: double-stranded DNA, one strand shown
# Medium: in vitro
# Concentration: not given
# Setting: 8-mer, flanks averaged, mean of 2 arrays, mostly near background
# Relative to: not given
# Reading: higher = stronger binding
# Construct (chain): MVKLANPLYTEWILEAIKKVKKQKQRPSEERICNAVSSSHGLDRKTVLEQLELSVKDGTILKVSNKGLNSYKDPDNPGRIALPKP
Strand,E-score
ACGGCCCG,0.356
GTCTCAGA,-0.133
ACGTCACG,0.122
AGGCCCAT,-0.11
TGTTGGAA,-0.244
ACGATCGT,-0.131
GTCTAGGA,-0.171
ATGCTGGA,-0.207
GGTGTTAC,0.0309
GCCGCGGC,0.479
CTGCCGGA,0.055
GGCGGAAA,0.152
AAGGGGGA,-0.0526
ACACGAAC,-0.003
CCGGTGTC,0.234
ACGTTACA,-0.0473
AACGATCG,-0.0375
CATCAGGC,-0.0879
TAATGCTA,0.000415
AAACTCAA,-0.152
GTATGGGA,-0.015
CGCGGGCC,0.434
ACTTAAGT,-0.179
AGTAATAG,-0.00029

# Study 6
# Target: Centromere-binding protein 1, full length, His-tagged (CBF1, Saccharomyces cerevisiae, UniProt P17106, residues 1-351)
# UniProt P17106, sequence (whole entry, looked up): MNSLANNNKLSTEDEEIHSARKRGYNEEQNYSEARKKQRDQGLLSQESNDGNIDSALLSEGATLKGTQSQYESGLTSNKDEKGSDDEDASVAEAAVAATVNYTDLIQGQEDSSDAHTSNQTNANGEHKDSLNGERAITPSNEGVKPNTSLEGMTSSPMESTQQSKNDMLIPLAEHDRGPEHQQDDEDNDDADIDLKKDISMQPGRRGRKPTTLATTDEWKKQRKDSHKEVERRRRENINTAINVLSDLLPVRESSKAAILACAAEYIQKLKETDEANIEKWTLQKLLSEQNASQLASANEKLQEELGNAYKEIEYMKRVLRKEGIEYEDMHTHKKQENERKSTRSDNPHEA
# Method: competition protein-binding microarray
# Molecule type: double-stranded DNA, one strand shown
# Medium: in vitro
# Concentration: 2 µM
# Setting: whole 60-bp probe, lowest competitor level
# With: Pho4 competitor, 0.05 µM
# Reading: higher = stronger binding
Strand,fluorescence intensity
CAGCGCGATCAGTTGCACATGGCGCGACTGCAAACCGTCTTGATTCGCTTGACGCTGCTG,98.3 a.u.
ATCATTACACCGCGAGTCGTGGGTACATTGTAGTTTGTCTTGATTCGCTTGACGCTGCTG,104 a.u.
CAGTGGGATGATCTACTCGTGTGGAAGACATGTCGAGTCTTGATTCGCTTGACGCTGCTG,79.2 a.u.
ACTCCAAAATACATCCTCGTGGCAACCCAGGCTACGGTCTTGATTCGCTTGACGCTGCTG,93.2 a.u.
AAAGCGGTAATTTTTCACGTGTATTCACATATCTATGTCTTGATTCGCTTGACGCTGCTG,940 a.u.
AGCGTTCAACTAGTCTACTAAAAAGTAAAAGAGTTAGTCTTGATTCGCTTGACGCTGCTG,80.4 a.u.
AATACCCTGGCATCTCTCGTGACGGGTTACCATTTAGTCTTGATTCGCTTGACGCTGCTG,145 a.u.
TGTTAAGTTCAACAACATGTGAAATTCTTAGCTCCGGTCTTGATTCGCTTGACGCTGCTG,117 a.u.
TATAGAAAATTTCTGAGTGAAGGGTGGTCTATACACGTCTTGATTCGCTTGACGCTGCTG,66.4 a.u.
AAATTACTAAGTTGATACGTGGGTGACGCCGTATGAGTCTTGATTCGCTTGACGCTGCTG,80.1 a.u.
TGGATATGCCGATTTCTCGTGAATAAATTTTACGGAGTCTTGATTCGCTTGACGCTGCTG,95.9 a.u.
AAATGGCCAATATTCTACGTGCTTTTTATTAGAAACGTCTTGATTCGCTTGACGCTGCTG,96.8 a.u.
CTTTCCCGATCTTGTATTGTGGGTGTAGCACATTTGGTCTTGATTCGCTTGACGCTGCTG,76.8 a.u.
ACAAGTGCCGACTGACTCGTGTCCTGGTAATAACAGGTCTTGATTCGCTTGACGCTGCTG,110 a.u.
GTCTTGTCTCATTGAGTCGTGGGTGTCCCCACTTCAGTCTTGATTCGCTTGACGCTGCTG,70.7 a.u.
CTTTCCCGATCTTGTATGGTGGGTGTAGCACATTTGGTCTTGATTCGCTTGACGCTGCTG,65.4 a.u.
CTAACGAAGGTTTGCAGTGTGGGTGACAAGCCAAGTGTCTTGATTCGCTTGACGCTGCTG,68.8 a.u.
TGCGCAACAACTTGGGCGGTGGGTGTATGTCTAGAAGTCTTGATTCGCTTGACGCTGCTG,55.9 a.u.
CCAGAAAGCCGCTATCACGTGATGGTCAATTTCTTTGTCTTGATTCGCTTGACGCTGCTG,13500 a.u.

# Study 7
# Target: RNA binding protein fox-1 homolog 2, RRM domain, GST-SBP tag (RBFOX2, Homo sapiens, UniProt O43251-10, residues 100-194)
# Method: RNA Bind-n-Seq
# Molecule type: RNA
# Medium: in vitro
# Concentration: 365 nM
# Setting: natural RNA segment, single round, ends assumed
# Relative to: no-protein control
# Reading: higher = stronger binding
# Target sequence (chain): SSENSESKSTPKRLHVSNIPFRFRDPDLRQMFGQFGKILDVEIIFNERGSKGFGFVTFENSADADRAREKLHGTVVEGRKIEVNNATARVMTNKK
Strand,RBNS enrichment (R)
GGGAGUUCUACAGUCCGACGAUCACAUAUCUGCAGUCCCAGCACAGUGGGACAAAAAGAAUUUAGACCCCAAAAGUGUCCUCGGCAUGGAUCUUGAACAGAACCAGUAUCUGUCAUGGAACUGAACAUUCAUCUGGAAUUCUCGGGUGCCAA,0.607
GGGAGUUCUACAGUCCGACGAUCCCAAGCGAUGGCCGCUCUCUCCUCUCCCCUCCUCAGAGGGGGCAGAUAGAAACUGGGACGGAUUCAAGUCACAUGCACGCGGAUAGCAGUAAGCCACACACCUGCCACUUUGGAAUUCUCGGGUGCCAA,0.75
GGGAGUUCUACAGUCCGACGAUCUUAUUUGCACAGGGAGAAUUGAAACUGAGUAUAAUCAAUAAGCUAGAUACGAAAUCAGUUUCUCAAACUGAGCUUCAGAAAGGGGCAUUUUGUACUCUUGUUUUUGCAUAUGGAAUUCUCGGGUGCCAA,3.62
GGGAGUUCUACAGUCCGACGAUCUUACUUCUAAAGAAGUUAGCUUGAACUGAGGAGUAAAAGUGUGUACAUAUAUAAUAUACCCUUACAUUAUGUAUGAGGGAUUUUUUUAAAUUAUAUUGAAAUGCUGCCCUUGGAAUUCUCGGGUGCCAA,0.39
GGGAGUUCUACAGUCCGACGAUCUAAUUUUUUACCAUUGCUACGUGUCCCACCUGCUGUUUACAAUAAAGGCAGAUGUGUGACAGGCCUGCCUCAUGUCCAUUCUUAGGGGAGGGAACUGGGGUUUCCUUGACUGGAAUUCUCGGGUGCCAA,0.347
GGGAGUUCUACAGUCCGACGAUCAACCCCACACUUGAUGCUCUGUCCUCUCCACACAGGCCUCUUGCUCCUAACAGCUCAGCCCUGGCCUUUUCUCACUACUGAUAGCAUCAUGUAAAUGCUCCAUGUUCCUGUGGAAUUCUCGGGUGCCAA,0.515
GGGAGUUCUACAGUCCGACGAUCAGGUAAUGGGGCCACCUGCUUGACACAUUGUGACGGAACCGACACCAAAGCUGAGGUCCCCUUGAUCAUGAACUCCAUAAAAUCCUUUUCUGACCACGCUCAAUGUGGAAUGGAAUUCUCGGGUGCCAA,0.358
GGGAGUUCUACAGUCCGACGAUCAAGUGUACACACACACACCACACACCACACACACCCCACUGGCAGUCUUUGUGGAUUAGGAUGGGGGUGACAUAAUUUUCUUGAGUUUAACAGGAGUGCUUUACCCAAGUUGGAAUUCUCGGGUGCCAA,0.732
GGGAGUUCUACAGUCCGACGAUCGUGGAGAAAGGCAAGAUUGAAGACACUGGAGGCAGUGGCGGCUCCUAUUCCAUCAAAACCCAGUUUAACUCGGAGGAGCAGUGGACAAAAGCGCUCAAGUUCAUGCUGACUGGAAUUCUCGGGUGCCAA,0.515
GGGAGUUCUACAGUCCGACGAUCUUAAACAAGGUGAGGGAGAGUAGCUGCCUCCGUGUCACCUUGUCUGCCUGGGUCUCUGAGGAAGGAGGGGUCCUGCUUUCUCACCCAGCUCACCCCUUUGGUGACUCAGAUGGAAUUCUCGGGUGCCAA,0.375
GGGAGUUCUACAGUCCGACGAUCUCACAGUGCACCAUGUCACUGUGCUAUCCUACGAAAUCAUUUGUUUCUAAGUUGUGUUUAUUCCUGGAGUGACAUGCCACCCCGAAUGGCUCACUUUCACUGAGGAUGCUUGGAAUUCUCGGGUGCCAA,0.307
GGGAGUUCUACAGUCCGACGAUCAGACCCUGUUUACUCCAUGCCUGUUCAAAAGUCAUUUUGACUUCUAGCUUUGUUUCACUUUCUUCUUUCAAUACUUCUGUUUCCUCGUCCUUUUCCUUCAUAUUCCAUGGUGGAAUUCUCGGGUGCCAA,5.12

# A few entries again (study 5):
Strand,E-score
ACTTAAGT,-0.179
CCGGTGTC,0.234
ACACGAAC,-0.003
GTCTAGGA,-0.171
GGTGTTAC,0.0309
CATCAGGC,-0.0879
GGCGGAAA,0.152
CTGCCGGA,0.055
GTCTCAGA,-0.133
TGTTGGAA,-0.244
ACGATCGT,-0.131
